# Measured values collected from several papers.
# Each line is one published result; not all experiments were run side by side.
# Organism: Escherichia coli
Compound,assay,system,setting,MIC
CNC(C)C1CCC(N)C(OC2C(N)CC(N)C(OC3OCC(C)(O)C(NC)C3O)C2O)O1 (stereo not shown),"microbial growth, broth dilution",K88,,< 1 µM
CC[C@H](C)[C@H](NC(=O)[C@@H](CCCNC(=N)N)NC(=O)[C@H](CCCNC(=N)N)NC(=O)[C@@H]1CCCN1C(=O)[C@@H]1CCCN1C(=O)[C@H](CCCNC(=N)N)NC(=O)[C@H](Cc1c[nH]c2ccccc12)NC(=O)[C@H](CCCNC(=N)N)NC(=O)[C@@H]1CCCN1C(=O)[C@H](CC(C)C)NC(=O)[C@H](Cc1ccc(O)cc1)NC(=O)[C@@H]1CCCN1C(=O)[C@@H]1CCCN1C(=O)[C@H](CCCCN)NC(=O)[C@H](CC(=O)O)NC(=O)[C@@H](N)C(C)C)C(=O)N[C@@H](Cc1ccc(O)cc1)C(=O)N[C@@H](CC(N)=O)C(=O)N[C@H](CCCNC(=N)N)C(N)=O,broth microdilution,ATCC 25922,"18 h, 37 °C, 25% MHB2",8 µg/mL
CCCCCCCC(=O)N[C@@H](CCN)C(=O)N[C@H](C(=O)N[C@@H](CCN)C(=O)N[C@H]1CCNC(=O)[C@H]([C@@H](C)O)NC(=O)[C@H](CCN)NC(=O)[C@H](CCN)NC(=O)[C@H](CCc2ccccc2)NC(=O)[C@@H](CC(C)C)NC(=O)[C@H](CCN)NC1=O)[C@@H](C)O,broth microdilution,ATCC 25922,,< 0.125 µg/mL
CC1(C)[C@H](NC(=O)/C(=N\OC2(C(=O)O)CCCCC2)c2csc(N)n2)C(=O)N1OS(=O)(=O)O,agar dilution,"CDC 1001728, NDM-1",,2 µg/mL
N=C(N)NCCC[C@H](NC(=O)[C@H](CCCNC(=N)N)NC(=O)[C@H](Cc1ccccc1)NC(=O)[C@H](CO)NC(=O)[C@H](Cc1ccccc1)NC(=O)[C@H](Cc1c[nH]c2ccccc12)NC(=O)[C@H](Cc1ccccc1)NC(=O)[C@H](CO)NC(=O)[C@H](Cc1ccccc1)NC(=O)[C@H](CCCNC(=N)N)NC(=O)[C@@H](N)CCCNC(=N)N)C(N)=O,broth microdilution,"25922, Mueller-Hinton broth","24 h, 37 °C, lowest concentration, 95% inhibition, together with: BSA",128 µM
CC[C@H](C)[C@H](NC(=O)[C@@H](CCCNC(=N)N)NC(=O)[C@H](CCCNC(=N)N)NC(=O)[C@H](Cc1ccc(O)cc1)NC(=O)[C@H](Cc1c[nH]c2ccccc12)NC(=O)[C@H](CCCNC(=N)N)NC(=O)[C@@H]1CCCN1C(=O)[C@H](CCCNC(=N)N)NC(=O)[C@@H]1CCCN1C(=O)[C@H](CC(C)C)NC(=O)[C@H](Cc1ccc(O)cc1)NC(=O)[C@@H]1CCCN1C(=O)[C@@H]1CCCN1C(=O)[C@H](CCCCN)NC(=O)[C@H](CC(=O)O)NC(=O)[C@@H](N)C(C)C)C(=O)N[C@@H](Cc1ccc(O)cc1)C(=O)N[C@@H](CC(N)=O)C(=O)N[C@H](CCCNC(=N)N)C(N)=O,broth microdilution,ATCC 25922,"18 h, 37 °C, 25% MHB2",8 µg/mL
COc1c(NC(=O)c2ccc(NC(=O)c3ccc(NC(=O)[C@H](CC(N)=O)NC(=O)c4ccc(NC(=O)[C@@H](N)Cc5ccccc5)cc4)cc3)c(OC)c2O)ccc(C(=O)O)c1O,,MerR family clone,"16 h, 37 °C",> 64 µg/mL
OB(O)c1cnn(-c2cccc(Cl)c2)c1,bacterial growth,AmpC-overproducing clinical isolate,without cefotaxime,> 2050 µg/mL
CC[C@H](C)[C@@H]1NC(=O)CNC(=O)[C@H](CCCNC(=N)N)NC(=O)[C@H](Cc2ccc(O)cc2)NC(=O)[C@@H]2CSSC[C@H](NC1=O)C(=O)N[C@@H](Cc1ccc(O)cc1)C(=O)N[C@@H](CCCNC(=N)N)C(=O)N[C@@H](CCCCN)C(=O)N[C@H](C(=O)N[C@@H](CCCNC(=N)N)C(N)=O)CSSC[C@H](NC(=O)[C@H](Cc1c[nH]c3ccccc13)NC(=O)[C@@H](N)CCCNC(=N)N)C(=O)N[C@@H](Cc1ccccc1)C(=O)N[C@@H](CCCNC(=N)N)C(=O)N[C@@H](C(C)C)C(=O)N2,broth dilution,"K12 BW25113, Mueller-Hinton II broth","18 h, 37 °C",3.91 µg/mL
CC[C@H](C)[C@H](NC(=O)[C@H](Cc1c[nH]c2ccccc12)NC(=O)c1ccccc1)C(=O)N[C@H](C(=O)N[C@@H](Cc1ccc(O)cc1)C(=O)N[C@@H](CCCCN)C(=O)N[C@@H](Cc1c[nH]c2ccccc12)C(=O)N1CCC[C@@H]1C(=O)N[C@@H](CCCNC(=N)N)C(=O)N[C@@H](CCCCN)C(=O)N[C@H](C(=O)N[C@H](C(=O)N[C@@H](CCCNC(=N)N)C(=O)N[C@@H](Cc1ccc(O)cc1)C(=O)N[C@@H](Cc1c[nH]c2ccccc12)C(=O)N[C@H](C(=O)NCC(=O)N[C@@H](CCCCN)C(=O)N[C@@H](CCCNC(=N)N)C(N)=O)[C@@H](C)O)C(C)C)C(C)C)C(C)C,,DH5α,"16 h, 37 °C",100 µM
Cc1ccc2nc(C)c(C(=O)C(=O)N(C)C)n2c1,"microbial growth, broth dilution",,,> 128 µM
CC(C)C[C@H](NC(=O)[C@H](CCCCN)NC(=O)[C@H](CC(C)C)NC(=O)[C@H](CCCCN)NC(=O)C1CCCC=CCCC(NC(=O)[C@H](CCCCN)NC(=O)[C@H](CC(C)C)NC(=O)[C@H](CCCCN)NC(=O)[C@@H](N)CC(C)C)C(=O)N[C@@H](CCCCN)C(=O)N2CCC[C@@H]2C(=O)NCC(=O)N[C@@H](CCCCN)C(=O)N1)C(N)=O (stereo partly shown),broth microdilution,"ATCC 25922, Mueller-Hinton broth","18 h, 37 °C",8 µM
CC[C@H](C)[C@H](NC(=O)CNC(=O)[C@H](CS)NC(=O)CNC(=O)[C@H](CO)NC(=O)[C@@H](NC(=O)[C@@H](NC(=O)[C@@H](NC(=O)[C@H](CC(N)=O)NC(=O)[C@@H](NC(=O)[C@H](CO)NC(=O)[C@H](CS)NC(=O)[C@H](C)NC(=O)[C@H](Cc1ccccc1)NC(=O)[C@H](CCCNC(=N)N)NC(=O)[C@H](CS)NC(=O)[C@H](CCCCN)NC(=O)[C@@H](NC(=O)CNC(=O)[C@@H](N)CO)[C@@H](C)CC)[C@@H](C)CC)[C@@H](C)O)[C@@H](C)O)[C@@H](C)CC)C(=O)N[C@@H](CO)C(=O)N[C@@H](CS)C(=O)N[C@@H](CCCCN)C(=O)N[C@@H](Cc1ccccc1)C(=O)O,broth microdilution,"K88, Mueller-Hinton broth",37 °C,70.3 µg/mL
CC[C@H](C)[C@H](NC(=O)[C@@H](CCCNC(=N)N)NC(=O)[C@H](CCCNC(=N)N)NC(=O)[C@@H](NC(=O)[C@H](Cc1c[nH]c2ccccc12)NC(=O)[C@H](CCCNC(=N)N)NC(=O)[C@@H]1CCCN1C(=O)[C@H](CCCNC(=N)N)NC(=O)[C@@H]1CCCN1C(=O)[C@H](CC(C)C)NC(=O)[C@H](Cc1ccc(O)cc1)NC(=O)[C@@H]1CCCN1C(=O)[C@@H]1CCCN1C(=O)[C@H](CCCCN)NC(=O)[C@H](CC(=O)O)NC(=O)[C@@H](N)C(C)C)[C@@H](C)O)C(=O)N[C@@H](Cc1ccc(O)cc1)C(=O)N[C@@H](CC(N)=O)C(=O)N[C@H](CCCNC(=N)N)C(N)=O,broth microdilution,ATCC 25922,"18 h, 37 °C, 25% MHB2",8 µg/mL
N=C(N)NCCC[C@@H]1NC(=O)[C@H](CCCNC(=N)N)NC(=O)[C@@H](C(c2ccccc2)c2ccccc2)NC(=O)[C@H](Cc2c[nH]c3ccccc23)NC(=O)[C@@H](C(c2ccccc2)c2ccccc2)NC(=O)[C@@H](CCCNC(=N)N)NC(=O)[C@@H](CCCNC(=N)N)NC1=O,,"ATCC BAA-2452, NDM-1 CRE",,16 µg/mL
CC[C@H](C)[C@H](NC(=O)[C@@H](CCCNC(=N)N)NC(=O)[C@H](CCCNC(=N)N)NC(=O)[C@@H]1CCCN1C(=O)[C@@H]1CCCN1C(=O)[C@H](CCCNC(=N)N)NC(=O)[C@@H]1CCCN1C(=O)[C@H](CCCNC(=N)N)NC(=O)[C@@H]1CCCN1C(=O)[C@H](CC(C)C)NC(=O)[C@H](Cc1ccc(O)cc1)NC(=O)[C@@H]1CCCN1C(=O)[C@H](Cc1ccc(O)cc1)NC(=O)[C@H](CCCCN)NC(=O)[C@H](CC(=O)O)NC(=O)[C@@H](N)C(C)C)C(=O)N[C@@H](Cc1ccc(O)cc1)C(=O)N[C@@H](CC(N)=O)C(=O)N[C@H](CCCNC(=N)N)C(N)=O,broth microdilution,MC4100,"18 h, 37 °C, 25% MHB2",16 µg/mL
CC(C)C[C@H](NC(=O)[C@@H](NC(=O)[C@H](CCCCN)NC(=O)[C@H](CCCCN)NC(=O)[C@H](CC(C)C)NC(=O)[C@H](Cc1c[nH]c2ccccc12)NC(=O)[C@H](CCCCN)NC(=O)[C@H](CC(C)C)NC(=O)[C@H](CC(C)C)NC(=O)[C@H](CCCCN)NC(=O)[C@H](CCCCN)NC(=O)[C@@H](N)C(C)C)C(C)C)C(N)=O,,,"24 h, 37 °C, Mueller-Hinton broth, CaCl2 2.5 mM",64 µM
CC[C@H](C)[C@H](NC(=O)[C@@H](CCCNC(=N)N)NC(=O)[C@H](CCCNC(=N)N)NC(=O)[C@@H]1CCCN1C(=O)[C@@H]1CCCN1C(=O)[C@H](CCCNC(=N)N)NC(=O)[C@@H]1CCCN1C(=O)[C@H](CCCNC(=N)N)NC(=O)[C@@H]1CCCN1C(=O)[C@H](CC(C)C)NC(=O)[C@H](Cc1ccc(O)cc1)NC(=O)[C@H](CCCNC(=N)N)NC(=O)[C@@H]1CCCN1C(=O)[C@H](CCCCN)NC(=O)[C@H](CC(=O)O)NC(=O)[C@@H](N)C(C)C)C(=O)N[C@@H](Cc1ccc(O)cc1)C(=O)N[C@@H](CC(N)=O)C(=O)N[C@H](CCCNC(=N)N)C(N)=O,broth microdilution,BW25113,"18 h, 37 °C, 25% MHB2",8 µg/mL
CC(C)C[C@H](NC(=O)[C@@H](NC(=O)[C@H](CCCCN)NC(=O)[C@H](CCCCN)NC(=O)[C@H](CC(C)C)NC(=O)[C@H](Cc1c[nH]c2ccccc12)NC(=O)[C@H](CCCCN)NC(=O)[C@H](Cc1c[nH]c2ccccc12)NC(=O)[C@H](CC(C)C)NC(=O)[C@H](CCCCN)NC(=O)[C@H](CCCCN)NC(=O)[C@@H](N)C(C)C)C(C)C)C(N)=O,,,"24 h, 37 °C, Mueller-Hinton broth, NaCl 150 mM",32 µM

# Repeated from above:
Compound,assay,system,setting,MIC
CNC(C)C1CCC(N)C(OC2C(N)CC(N)C(OC3OCC(C)(O)C(NC)C3O)C2O)O1 (stereo not shown),"microbial growth, broth dilution",K88,,< 1 µM
Cc1ccc2nc(C)c(C(=O)C(=O)N(C)C)n2c1,"microbial growth, broth dilution",,,> 128 µM
